Experimental data collected from several papers.
Every numbered part comes from another study and shows a few of its results, in no order. Substitutions count along the parent as printed.

Sample 1
Target: Histone acetyltransferase KAT6A, winged helix 2, GST fusion (KAT6A, Homo sapiens, UniProt Q92794, residues 85-181)
Method: protein binding microarray
Molecule type: double-stranded DNA, one strand shown
Medium: in vitro
Tested at: not given
Setting: 8-mer, flanks averaged, mean of 2 arrays, mostly near background
Reference: not given
Reading: higher = stronger binding
Endpoint: E-score
Residues (chain): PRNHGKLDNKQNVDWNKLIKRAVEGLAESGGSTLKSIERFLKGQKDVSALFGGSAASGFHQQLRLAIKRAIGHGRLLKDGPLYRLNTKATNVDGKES
TAAATGCA: -0.0658
ACGACTTC: -0.142
TATGCGAA: -0.0757
AAGCGAGG: 0.152
CCGCCAAA: 0.152
ATTCGTTA: -0.0648
ACCTCGGG: 0.0385
GAAACAGA: 0.147
GTCATGGA: -0.0488
CAAGAGTA: -0.0632
ATTATAAG: 0.0428
AAGTCTTC: -0.155
CACATGCA: -0.00269
CCCGGGTA: 0.117
CATCCAGC: 0.198
GGCAGTCA: 0.185
ATTATGGC: -0.00211
AGCATACT: -0.0998
CGTCTTGC: 0.0602

Sample 2
Target: CCNA1, cyclin fold, Cln2 fusion (human)
Method: yeast growth competition, sequencing
Medium: yeast
Setting: weak parent motif
Reference: not given
Reading: higher = stronger binding
Endpoint: normalised enrichment score
Starting sequence: SCAPER docking peptide (human); SNARRSLNFGGST
SNARRSLNFTGST [G10T]: 0.585
SNARRSLKFGGST [N8K]: 0.516
SNHRRSLNFGGST [A3H]: 0.326
SNARTSLNFGGST [R5T]: 0.209
SNARRSLNFVGST [G10V]: 0.2
SNARRRLNFGGST [S6R]: 0.467
SNARRSLNFGGGT [S12G]: 0.632
SDARRSLNFGGST [N2D]: 0.412
SNARRSGNFGGST [L7G]: 0.149
SNARRSLIFGGST [N8I]: 0.755
KNARRSLNFGGST [S1K]: 0.277
SRARRSLNFGGST [N2R]: 0.649
SNARGSLNFGGST [R5G]: 0.121
SNARRSLNVGGST [F9V]: 0.147
SNAERSLNFGGST [R4E]: -0.0249
SFARRSLNFGGST [N2F]: 0.769
SNARRSANFGGST [L7A]: 0.685
SNARRSLNFGYST [G11Y]: 0.573
SNARRSLNFGGYT [S12Y]: 0.373
SNARRSLNFGGSQ [T13Q]: 0.494
SNNRRSLNFGGST [A3N]: 0.709
SNARRSQNFGGST [L7Q]: 0.607
SNARRSLNFGPST [G11P]: 0.624
SNARRSLNFNGST [G10N]: 0.473
SNAIRSLNFGGST [R4I]: 0.387

Sample 3
Target: Interferon regulatory factor 5, full length, phosphomimetic (IRF5, Homo sapiens, UniProt Q13568-2, residues 1-514, K96S/S451D/S453D/S456D/S462D)
Method: protein-binding microarray
Molecule type: double-stranded DNA, one strand shown
Medium: in vitro
Tested at: 250 nM
Setting: 60-bp whole probe
Together with: salmon DNA 0.4 mg/ml
Reference: random background probes
Reading: higher = stronger binding
Endpoint: log fluorescence
All sequences stand within: GCCTAGCAC … GTCTTGATTCGCTTGACGCTGCTG
GACAATTTCAGTTTCGAGACGTGCTAG: 8.09 z-score
GACGGTTCCCTACTGCTGACGTGCTAG: -0.195 z-score
TCACATATACACTGTGTATCTGTGCTA: 0.693 z-score
TCATGTAACTCCTATCCAACTGTGCTA: 0.462 z-score
TCAATTCTCTACTTGTGACTGTGCTAG: 0.184 z-score
CTAGGTATCGGACTGGGTTAGTGCTAG: 1.16 z-score
TTAGAACTGGGGTTTCGAATAGTGCTA: 1.49 z-score
TTAGGCCTGGACTTTCGGTTAGTGCTA: 9.18 z-score
CACTCTCAGAATCTCTCATGGTGCTAG: 0.518 z-score
GACGGACTGGGAGTGGGGACGTGCTAG: -0.45 z-score
GACGATATCAGACTGGATACGTGCTAG: 0.295 z-score
TCACTTTCCTTCTTGAAACTGTGCTAG: 2.76 z-score
TTAGGTTTCCTTCTCATTTAGTGCTAG: 1.35 z-score
TAGTTTCTAAAACTCTTTATGTGCTAG: 2.19 z-score
TTAGATTCAAGTTTCGATTAGTGCTAG: 8.76 z-score
ACCGATTTCCTTCACCCACTGTGCTAG: 0.673 z-score

Sample 4
Target: RING finger protein unkempt homolog, zinc fingers 1-6, GST-SBP tag (UNK, Homo sapiens, UniProt Q9C0B0, residues 30-357)
Chain of UniProt Q9C0B0 (30-357, looked up): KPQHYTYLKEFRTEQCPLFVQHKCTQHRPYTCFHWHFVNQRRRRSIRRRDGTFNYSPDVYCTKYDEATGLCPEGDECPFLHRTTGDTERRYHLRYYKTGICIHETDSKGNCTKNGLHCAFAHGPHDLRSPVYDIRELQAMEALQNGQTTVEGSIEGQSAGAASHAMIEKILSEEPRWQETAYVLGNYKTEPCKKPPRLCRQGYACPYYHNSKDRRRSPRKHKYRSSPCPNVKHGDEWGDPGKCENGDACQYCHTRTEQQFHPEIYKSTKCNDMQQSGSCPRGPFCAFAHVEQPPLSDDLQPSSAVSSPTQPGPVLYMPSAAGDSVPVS
Method: RNA Bind-n-Seq
Molecule type: RNA
Medium: in vitro
Tested at: not given
Setting: RNA with constant flanks, human and mouse sites, ends assumed
Reference: input RNA pool
Reading: higher = stronger binding
Endpoint: bound/input enrichment
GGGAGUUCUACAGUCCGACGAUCGCCACAUUUGCUAUUUCCAUCCUGCAACAGUUGGAGAUUGAGUUCAAGGAGACCCAAGCACUAGUAUUGGCCCCCACCAGAGAACUGGCUCAACAGAUCCAAAAGGUAAUUUUGGCUCUUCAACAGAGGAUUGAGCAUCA: 0.128 ratio
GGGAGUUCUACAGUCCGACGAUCGAAGAUGCGGCAUCCUAUGUUAGAAAGGUUAUACCAAAAGAUUACAAGACAAUGGCCGCUUUAGCCAAAGCCAUUGAAAAGAAUGUGCUGUUUUCACAUCUUGAUGAUAAUGAGAGAAGUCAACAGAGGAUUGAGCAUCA: 0.767 ratio
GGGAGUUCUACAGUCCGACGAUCUAUGCAUUAGCAAAAGCUGAUUUCGAACAGAAAAUGACAGAAACAGCUCAGAAAUUUCAAGAUAUUGAAGAAACUCAUCUCAUUCACAUAAAGGAAAUUAUAGGAUCCUUGUCAAAUGCUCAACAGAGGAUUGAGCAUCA: 0.658 ratio
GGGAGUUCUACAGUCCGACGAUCGGAGAAAAUAAACAAACCACGGUGUCCAACUCCCAGCAGGCUUACCAAGAAGCAUUUGAAAUCAGCAAGAAAGAAAUGCAGCCUACACACCCGAUUCGCCUCGGCCUGGCGCUGAAUUUCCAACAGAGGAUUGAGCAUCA: 0.184 ratio
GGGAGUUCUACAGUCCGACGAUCUGCUAUCAGAGAAGAAAAUGAAAAACGAUUACGUGAAUCAUCAGGUACACUUUCAGGAAACACAGGAGACAUACCCGAAAAAAAGGAAAAGUCUUCAGAGAUAAUAAAAGUCGCAGCAGACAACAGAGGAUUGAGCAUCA: 0.131 ratio
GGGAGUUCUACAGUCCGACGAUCCAGAAUGGACUGGAAGUUUCACUGAGUAGCCUAAGUCUGGCUGUUCCUCCACCAAGAUUUCAUGACUCCAGCAGUCCGUUGCUAACCAGUGGGCCCUCAGUUGCUGAGCUCCCGUGGGCUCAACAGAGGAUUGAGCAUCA: 0.269 ratio
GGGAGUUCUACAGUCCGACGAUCCUGUACUGGAAGCAUGCUCCAAAGACCUGUAAGAACUUUGCUGAGUUGGCUCGUCGAGGUUACUACAAUGGCACAAAAUUCCACAGAAUUAUCAAAGACUUCAUGAUCCAAGGAGGUGACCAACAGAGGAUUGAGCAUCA: 0.185 ratio
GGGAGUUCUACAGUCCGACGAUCCGCCUCGGGUCGUGGAGCCAGGAGCGACGUCACCGCCAUGGCAGGCAUCAAAGCUUUGAUUAGUUUGUCCUUUGGAGGAGCAAUCGGACUGAUGUUUUUGAUGCUUGGAUGUGCCCUUCCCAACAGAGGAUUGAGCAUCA: 0.181 ratio

Further values, each from its own experiment
PhoQ, residues 284 288 289 292 302 303 AGCYAI
fold induction (PhoP, residues 12 14 15 18 19 TPLRH (Escherichia coli, UniProt P23836); Sort-seq, measured: YFP reporter; E. coli; PhoQ-PhoP variant library, together with: 10 µM Mg2+; reference: high Mg2+ state, higher = stronger signaling): 0.582

Some of these lines once more (sample 3):
TCAATTCTCTACTTGTGACTGTGCTAG: 0.184 z-score
CTAGGTATCGGACTGGGTTAGTGCTAG: 1.16 z-score
TTAGAACTGGGGTTTCGAATAGTGCTA: 1.49 z-score
TTAGGCCTGGACTTTCGGTTAGTGCTA: 9.18 z-score
